Published values pooled from the literature.
Numbered parts are unrelated; each lists some results of a single study.
Sequence of UniProt Q9UBS0 (whole entry, looked up): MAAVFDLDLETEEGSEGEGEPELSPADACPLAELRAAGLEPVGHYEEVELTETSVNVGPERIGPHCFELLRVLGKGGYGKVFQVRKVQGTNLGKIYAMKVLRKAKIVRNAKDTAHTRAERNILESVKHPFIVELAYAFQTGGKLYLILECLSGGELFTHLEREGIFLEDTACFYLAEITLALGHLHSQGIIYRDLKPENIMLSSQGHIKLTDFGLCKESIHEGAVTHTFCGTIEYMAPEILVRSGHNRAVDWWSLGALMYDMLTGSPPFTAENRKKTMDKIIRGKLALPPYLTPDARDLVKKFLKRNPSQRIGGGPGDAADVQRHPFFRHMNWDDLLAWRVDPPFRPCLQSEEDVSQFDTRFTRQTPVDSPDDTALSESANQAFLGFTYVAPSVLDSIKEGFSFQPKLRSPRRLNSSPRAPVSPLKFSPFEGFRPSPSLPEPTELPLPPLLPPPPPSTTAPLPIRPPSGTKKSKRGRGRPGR
Sequence of UniProt Q09013 (whole entry, looked up): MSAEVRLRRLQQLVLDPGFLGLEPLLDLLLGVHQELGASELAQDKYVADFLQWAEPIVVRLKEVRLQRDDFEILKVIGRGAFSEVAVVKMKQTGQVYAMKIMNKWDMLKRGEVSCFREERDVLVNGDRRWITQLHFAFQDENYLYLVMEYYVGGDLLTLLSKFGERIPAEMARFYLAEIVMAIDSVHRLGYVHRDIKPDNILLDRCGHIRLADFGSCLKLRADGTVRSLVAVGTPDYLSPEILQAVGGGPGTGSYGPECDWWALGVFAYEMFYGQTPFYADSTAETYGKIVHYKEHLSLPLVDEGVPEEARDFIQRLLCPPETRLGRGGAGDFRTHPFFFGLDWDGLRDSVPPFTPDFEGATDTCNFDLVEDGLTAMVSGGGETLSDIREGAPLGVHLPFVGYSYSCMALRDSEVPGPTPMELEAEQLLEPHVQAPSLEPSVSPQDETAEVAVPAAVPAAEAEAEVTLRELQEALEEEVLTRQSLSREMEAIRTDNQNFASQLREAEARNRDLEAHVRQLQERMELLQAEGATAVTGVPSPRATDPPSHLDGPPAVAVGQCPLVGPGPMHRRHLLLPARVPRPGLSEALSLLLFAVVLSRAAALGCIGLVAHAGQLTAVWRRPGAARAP
Sequence of UniProt P36896 (whole entry, looked up): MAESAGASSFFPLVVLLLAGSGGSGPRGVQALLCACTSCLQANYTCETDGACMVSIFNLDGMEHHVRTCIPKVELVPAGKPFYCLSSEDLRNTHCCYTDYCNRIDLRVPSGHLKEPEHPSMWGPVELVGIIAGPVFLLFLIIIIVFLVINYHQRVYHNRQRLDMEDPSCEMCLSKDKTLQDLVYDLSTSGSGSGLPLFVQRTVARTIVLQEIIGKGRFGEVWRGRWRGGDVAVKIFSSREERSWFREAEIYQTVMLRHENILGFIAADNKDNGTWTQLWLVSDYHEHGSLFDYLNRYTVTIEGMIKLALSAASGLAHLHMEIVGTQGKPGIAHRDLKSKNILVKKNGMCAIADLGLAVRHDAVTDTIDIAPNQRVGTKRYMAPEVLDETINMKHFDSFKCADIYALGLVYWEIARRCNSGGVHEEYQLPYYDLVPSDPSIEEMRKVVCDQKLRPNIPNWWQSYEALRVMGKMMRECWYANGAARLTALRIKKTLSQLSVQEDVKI
Sequence of UniProt Q6P3R8 (whole entry, looked up): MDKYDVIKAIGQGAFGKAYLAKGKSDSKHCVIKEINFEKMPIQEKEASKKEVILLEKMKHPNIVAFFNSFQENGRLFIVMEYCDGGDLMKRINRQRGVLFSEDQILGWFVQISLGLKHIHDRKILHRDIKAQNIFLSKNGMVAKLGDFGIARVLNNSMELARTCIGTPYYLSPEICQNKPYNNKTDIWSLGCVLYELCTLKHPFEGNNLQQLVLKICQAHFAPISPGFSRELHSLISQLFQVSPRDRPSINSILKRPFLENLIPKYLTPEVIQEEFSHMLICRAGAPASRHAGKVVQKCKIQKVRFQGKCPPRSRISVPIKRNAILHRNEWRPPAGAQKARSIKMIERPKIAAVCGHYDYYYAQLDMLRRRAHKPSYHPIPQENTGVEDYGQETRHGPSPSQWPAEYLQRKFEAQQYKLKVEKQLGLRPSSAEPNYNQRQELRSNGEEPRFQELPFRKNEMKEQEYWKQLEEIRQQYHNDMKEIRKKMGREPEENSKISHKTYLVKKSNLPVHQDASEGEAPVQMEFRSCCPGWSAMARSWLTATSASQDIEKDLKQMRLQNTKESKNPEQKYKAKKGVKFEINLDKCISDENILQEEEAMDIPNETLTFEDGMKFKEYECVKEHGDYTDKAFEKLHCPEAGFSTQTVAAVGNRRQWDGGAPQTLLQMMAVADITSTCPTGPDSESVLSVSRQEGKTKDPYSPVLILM
Sequence of UniProt P49759 (whole entry, looked up): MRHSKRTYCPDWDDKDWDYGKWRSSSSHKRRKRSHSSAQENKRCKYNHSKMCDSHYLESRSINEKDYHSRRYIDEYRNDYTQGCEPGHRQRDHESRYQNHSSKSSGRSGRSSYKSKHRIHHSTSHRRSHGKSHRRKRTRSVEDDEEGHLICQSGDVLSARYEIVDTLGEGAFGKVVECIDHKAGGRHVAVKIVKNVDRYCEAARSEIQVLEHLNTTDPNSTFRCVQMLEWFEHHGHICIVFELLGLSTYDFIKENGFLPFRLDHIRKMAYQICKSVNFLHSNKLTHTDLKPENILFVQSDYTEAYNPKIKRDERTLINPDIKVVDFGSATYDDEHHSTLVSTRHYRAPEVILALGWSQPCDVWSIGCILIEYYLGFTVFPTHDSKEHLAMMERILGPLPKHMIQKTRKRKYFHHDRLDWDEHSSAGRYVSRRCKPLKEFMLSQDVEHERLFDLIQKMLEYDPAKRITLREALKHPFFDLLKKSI
Sequence of UniProt Q9UIK4 (whole entry, looked up): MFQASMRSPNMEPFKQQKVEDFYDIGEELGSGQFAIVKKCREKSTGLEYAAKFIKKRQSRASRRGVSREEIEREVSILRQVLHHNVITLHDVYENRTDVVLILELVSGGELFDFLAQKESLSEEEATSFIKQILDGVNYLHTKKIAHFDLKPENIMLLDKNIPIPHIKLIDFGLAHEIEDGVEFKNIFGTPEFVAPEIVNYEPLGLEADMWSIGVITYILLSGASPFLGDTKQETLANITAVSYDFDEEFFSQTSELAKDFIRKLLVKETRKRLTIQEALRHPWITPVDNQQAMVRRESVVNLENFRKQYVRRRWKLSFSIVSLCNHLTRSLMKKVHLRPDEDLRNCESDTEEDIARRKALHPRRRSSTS
Sequence of UniProt Q6ZN16 (whole entry, looked up): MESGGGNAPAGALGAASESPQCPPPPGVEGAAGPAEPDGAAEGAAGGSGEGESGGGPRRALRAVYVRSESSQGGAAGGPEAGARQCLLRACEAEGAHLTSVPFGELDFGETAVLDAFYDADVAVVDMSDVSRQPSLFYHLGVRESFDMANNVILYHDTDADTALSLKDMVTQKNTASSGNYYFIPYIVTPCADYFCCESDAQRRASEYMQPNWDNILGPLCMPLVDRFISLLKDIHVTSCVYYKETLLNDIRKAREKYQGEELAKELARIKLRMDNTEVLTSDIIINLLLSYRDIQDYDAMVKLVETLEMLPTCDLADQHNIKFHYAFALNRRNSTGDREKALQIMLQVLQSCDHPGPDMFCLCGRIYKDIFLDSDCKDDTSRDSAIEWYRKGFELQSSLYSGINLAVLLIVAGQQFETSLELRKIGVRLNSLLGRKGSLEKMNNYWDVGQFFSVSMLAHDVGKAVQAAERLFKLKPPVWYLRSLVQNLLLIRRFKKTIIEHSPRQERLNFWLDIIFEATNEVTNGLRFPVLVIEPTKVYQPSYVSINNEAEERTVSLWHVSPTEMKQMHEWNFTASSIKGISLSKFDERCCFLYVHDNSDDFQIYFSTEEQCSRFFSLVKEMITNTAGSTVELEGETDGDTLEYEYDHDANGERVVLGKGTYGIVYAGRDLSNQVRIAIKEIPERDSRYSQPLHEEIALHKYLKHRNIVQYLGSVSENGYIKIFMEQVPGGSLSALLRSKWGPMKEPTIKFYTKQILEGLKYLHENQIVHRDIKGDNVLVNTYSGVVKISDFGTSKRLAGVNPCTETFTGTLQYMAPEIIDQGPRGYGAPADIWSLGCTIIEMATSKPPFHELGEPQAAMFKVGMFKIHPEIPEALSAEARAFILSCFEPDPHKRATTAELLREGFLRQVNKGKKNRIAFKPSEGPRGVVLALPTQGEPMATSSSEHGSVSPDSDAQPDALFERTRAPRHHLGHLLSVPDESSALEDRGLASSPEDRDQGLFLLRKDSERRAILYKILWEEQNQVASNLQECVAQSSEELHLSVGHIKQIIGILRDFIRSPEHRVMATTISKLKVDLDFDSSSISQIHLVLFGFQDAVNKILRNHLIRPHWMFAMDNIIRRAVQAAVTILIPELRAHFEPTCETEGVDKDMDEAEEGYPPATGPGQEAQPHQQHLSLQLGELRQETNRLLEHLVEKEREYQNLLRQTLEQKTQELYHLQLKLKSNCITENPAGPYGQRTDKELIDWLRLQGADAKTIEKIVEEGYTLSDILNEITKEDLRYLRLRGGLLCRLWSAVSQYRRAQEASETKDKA
Sequence of UniProt P49760 (whole entry, looked up): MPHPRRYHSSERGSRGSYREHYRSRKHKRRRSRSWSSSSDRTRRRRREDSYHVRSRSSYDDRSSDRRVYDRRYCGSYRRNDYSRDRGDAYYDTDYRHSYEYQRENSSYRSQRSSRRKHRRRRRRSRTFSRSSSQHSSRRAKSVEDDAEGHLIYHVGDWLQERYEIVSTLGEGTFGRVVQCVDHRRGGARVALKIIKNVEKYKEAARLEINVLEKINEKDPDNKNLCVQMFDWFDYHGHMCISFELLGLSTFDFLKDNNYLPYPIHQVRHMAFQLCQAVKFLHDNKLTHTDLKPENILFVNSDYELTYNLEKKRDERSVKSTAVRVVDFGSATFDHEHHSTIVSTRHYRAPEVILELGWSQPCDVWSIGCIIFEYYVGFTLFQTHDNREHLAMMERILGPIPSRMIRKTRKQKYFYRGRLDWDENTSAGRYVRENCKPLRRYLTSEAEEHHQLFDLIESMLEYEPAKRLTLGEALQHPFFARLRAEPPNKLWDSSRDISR

Study 1
SMILES: CNC(=O)Nc1ccc2c(c1)CC[C@@]21OC(=O)N(CC(=O)N(Cc2ccc(F)cc2)[C@@H](C)C(F)(F)F)C1=O
Effect on: cell-free assay
Method: competition with immobilised ligand
Concentration: 1 µM
target	remaining binding [%]
ACVR1B (Homo sapiens, UniProt P36896)	86
GSK3B (Homo sapiens, UniProt P49841)	82
NEK5 (Homo sapiens, UniProt Q6P3R8)	100
FLT3 (Homo sapiens, UniProt P36888, D835H)	86
Ribosomal protein S6 kinase alpha-4, N-terminal kinase domain (RPS6KA4, Homo sapiens, UniProt O75676)	100
MYLK2 (Homo sapiens, UniProt Q9H1R3)	84
MAP3K15 (Homo sapiens, UniProt Q6ZN16)	77
DMPK (Homo sapiens, UniProt Q09013)	100

Study 2
SMILES: CN1CCN(C(=O)c2ccc(NC(=O)Nc3ccc(N(C)c4ccnc(Nc5ccc(CS(C)(=O)=O)cc5)n4)cc3)cc2)CC1
Effect on: binding
Concentration: 1 µM
target	assay	remaining binding [%]
TBK1 (Homo sapiens, UniProt Q9UHD2)	–	55
DAPK2 (Homo sapiens, UniProt Q9UIK4)	–	100
GRK1 (Homo sapiens, UniProt Q15835)	–	100
DDR1 (Homo sapiens, UniProt Q08345)	competition with immobilised ligand	0
EPHA3 (Homo sapiens, UniProt P29320)	competition with immobilised ligand	79
PTK2B (Homo sapiens, UniProt Q14289)	–	20
TNNI3K (Homo sapiens, UniProt Q59H18)	competition with immobilised ligand	92
MINK1 (Homo sapiens, UniProt Q8N4C8)	competition with immobilised ligand	18

Study 3
Target: Diamine acetyltransferase 1 (Homo sapiens, UniProt P21673)
Action: inhibitor
Concentration: 10 µM
Relative to: control
Residues (P21673 1-171): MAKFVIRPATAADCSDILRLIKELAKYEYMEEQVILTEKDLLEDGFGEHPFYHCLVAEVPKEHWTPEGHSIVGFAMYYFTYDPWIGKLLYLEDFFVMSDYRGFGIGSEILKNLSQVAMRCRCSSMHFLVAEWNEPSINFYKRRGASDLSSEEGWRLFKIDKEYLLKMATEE
Structure (SMILES)	remaining activity [%]
Oc1cc(O)c2c(c1)OC(c1ccc(O)c(O)c1)C(OC1(c3ccc(O)c(O)c3)Oc3cc(O)cc(O)c3C(O)C1O)C2 (stereo not drawn)	90.3
OCCCO	102
Oc1cc(O)c2c(c1)O[C@H](c1ccc(O)c(O)c1)[C@H](O)[C@H]2c1c(O)cc(O)c2c1O[C@H](c1ccc(O)c(O)c1)[C@H](O)[C@H]2c1c(O)cc(O)c2c1O[C@H](c1ccc(O)c(O)c1)[C@H](O)C2	86.9
COc1ccc(C(=O)O)cc1	109
CCOC(=O)/C=C/c1ccccc1	98.7
CCCCCCCCCCCCCCC(=O)O	85.9
O=C(O)/C=C/c1ccc(O)cc1	90.6
CCCCCCCCCCCCCCCCCCCCC	85.6
COc1ccc2ccc(=O)oc2c1	94.4
COc1c(O)cc2occ(-c3ccc(O)cc3)c(=O)c2c1O	116

Study 4
SMILES: Cn1cc(/C=C2\C(=O)Nc3ccc(S(N)(=O)=O)cc32)c2ccccc21
Effect on: enzyme activity
Action: inhibitor
Concentration: 0.5 µM
Relative to: control
target	remaining activity [%]
MAP3K20 (Homo sapiens, UniProt Q9NYL2)	95
SIK2 (Homo sapiens, UniProt Q9H0K1)	81.4
TEC (Homo sapiens, UniProt P42680)	157
MELK (Homo sapiens, UniProt Q14680)	63
PAK1 (Homo sapiens, UniProt Q13153)	90.8
JAK2 (Homo sapiens, UniProt O60674)	58.4
CAMK1 (Homo sapiens, UniProt Q14012)	75.7
SRPK1 (Homo sapiens, UniProt Q96SB4)	69
CSNK1D (Homo sapiens, UniProt P48730)	102
RPS6KA3 (Homo sapiens, UniProt P51812)	12.4
CLK2 (Homo sapiens, UniProt P49760)	38.1
PIM1 (Homo sapiens, UniProt P11309)	96.5
CLK1 (Homo sapiens, UniProt P49759)	88.3
RPS6KB2 (Homo sapiens, UniProt Q9UBS0)	94.6
ACVRL1 (Homo sapiens, UniProt P37023)	99.1
PAK6 (Homo sapiens, UniProt Q9NQU5)	90.1
MUSK (Homo sapiens, UniProt O15146)	105
IGF1R (Homo sapiens, UniProt P08069)	87.9
PAK5 (Homo sapiens, UniProt Q9P286)	75.3
TYRO3 (Homo sapiens, UniProt Q06418)	90.5
CAMKK1 (Homo sapiens, UniProt Q8N5S9)	44.9
Cyclin-dependent kinase 2, with cyclin E (CDK2, Homo sapiens, UniProt P24941)	77.9
FES (Homo sapiens, UniProt P07332)	57.4
CSNK1E (Homo sapiens, UniProt P49674)	89
BRSK2 (Homo sapiens, UniProt Q8IWQ3)	65.5

Repeated from above (study 2):
target	assay	remaining binding [%]
DAPK2 (Homo sapiens, UniProt Q9UIK4)	–	100
DDR1 (Homo sapiens, UniProt Q08345)	competition with immobilised ligand	0
GRK1 (Homo sapiens, UniProt Q15835)	–	100
TBK1 (Homo sapiens, UniProt Q9UHD2)	–	55
MINK1 (Homo sapiens, UniProt Q8N4C8)	competition with immobilised ligand	18
